Assay results collected from several papers.
Each numbered part is a random draw from the data of one study; scales do not carry over between parts. Several values in a cell are separate wells, animals, samples, runs or records.
Sequence of UniProt P62344 (whole entry, looked up): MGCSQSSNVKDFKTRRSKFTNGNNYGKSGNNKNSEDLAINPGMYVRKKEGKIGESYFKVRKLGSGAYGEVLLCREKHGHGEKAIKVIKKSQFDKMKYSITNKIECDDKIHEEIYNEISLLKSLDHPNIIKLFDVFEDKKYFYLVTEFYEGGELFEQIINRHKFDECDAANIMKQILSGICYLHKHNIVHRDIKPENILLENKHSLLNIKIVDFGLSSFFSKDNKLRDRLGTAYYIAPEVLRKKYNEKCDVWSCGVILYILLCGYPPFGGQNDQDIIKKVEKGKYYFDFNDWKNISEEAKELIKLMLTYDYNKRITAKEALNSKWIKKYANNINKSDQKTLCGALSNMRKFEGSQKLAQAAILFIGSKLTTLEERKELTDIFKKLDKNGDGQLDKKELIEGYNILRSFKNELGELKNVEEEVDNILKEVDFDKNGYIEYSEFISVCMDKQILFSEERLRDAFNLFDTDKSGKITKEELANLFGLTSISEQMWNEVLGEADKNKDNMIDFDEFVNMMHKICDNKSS

Sample 1 — effect on: enzyme activity; mode: inhibitor; concentration: 77 µM; relative to: untreated
Target: DNA polymerase theta, ATPase domain (POLQ, Homo sapiens, UniProt O75417)
Sequence of UniProt O75417 (whole entry, unmodified, looked up): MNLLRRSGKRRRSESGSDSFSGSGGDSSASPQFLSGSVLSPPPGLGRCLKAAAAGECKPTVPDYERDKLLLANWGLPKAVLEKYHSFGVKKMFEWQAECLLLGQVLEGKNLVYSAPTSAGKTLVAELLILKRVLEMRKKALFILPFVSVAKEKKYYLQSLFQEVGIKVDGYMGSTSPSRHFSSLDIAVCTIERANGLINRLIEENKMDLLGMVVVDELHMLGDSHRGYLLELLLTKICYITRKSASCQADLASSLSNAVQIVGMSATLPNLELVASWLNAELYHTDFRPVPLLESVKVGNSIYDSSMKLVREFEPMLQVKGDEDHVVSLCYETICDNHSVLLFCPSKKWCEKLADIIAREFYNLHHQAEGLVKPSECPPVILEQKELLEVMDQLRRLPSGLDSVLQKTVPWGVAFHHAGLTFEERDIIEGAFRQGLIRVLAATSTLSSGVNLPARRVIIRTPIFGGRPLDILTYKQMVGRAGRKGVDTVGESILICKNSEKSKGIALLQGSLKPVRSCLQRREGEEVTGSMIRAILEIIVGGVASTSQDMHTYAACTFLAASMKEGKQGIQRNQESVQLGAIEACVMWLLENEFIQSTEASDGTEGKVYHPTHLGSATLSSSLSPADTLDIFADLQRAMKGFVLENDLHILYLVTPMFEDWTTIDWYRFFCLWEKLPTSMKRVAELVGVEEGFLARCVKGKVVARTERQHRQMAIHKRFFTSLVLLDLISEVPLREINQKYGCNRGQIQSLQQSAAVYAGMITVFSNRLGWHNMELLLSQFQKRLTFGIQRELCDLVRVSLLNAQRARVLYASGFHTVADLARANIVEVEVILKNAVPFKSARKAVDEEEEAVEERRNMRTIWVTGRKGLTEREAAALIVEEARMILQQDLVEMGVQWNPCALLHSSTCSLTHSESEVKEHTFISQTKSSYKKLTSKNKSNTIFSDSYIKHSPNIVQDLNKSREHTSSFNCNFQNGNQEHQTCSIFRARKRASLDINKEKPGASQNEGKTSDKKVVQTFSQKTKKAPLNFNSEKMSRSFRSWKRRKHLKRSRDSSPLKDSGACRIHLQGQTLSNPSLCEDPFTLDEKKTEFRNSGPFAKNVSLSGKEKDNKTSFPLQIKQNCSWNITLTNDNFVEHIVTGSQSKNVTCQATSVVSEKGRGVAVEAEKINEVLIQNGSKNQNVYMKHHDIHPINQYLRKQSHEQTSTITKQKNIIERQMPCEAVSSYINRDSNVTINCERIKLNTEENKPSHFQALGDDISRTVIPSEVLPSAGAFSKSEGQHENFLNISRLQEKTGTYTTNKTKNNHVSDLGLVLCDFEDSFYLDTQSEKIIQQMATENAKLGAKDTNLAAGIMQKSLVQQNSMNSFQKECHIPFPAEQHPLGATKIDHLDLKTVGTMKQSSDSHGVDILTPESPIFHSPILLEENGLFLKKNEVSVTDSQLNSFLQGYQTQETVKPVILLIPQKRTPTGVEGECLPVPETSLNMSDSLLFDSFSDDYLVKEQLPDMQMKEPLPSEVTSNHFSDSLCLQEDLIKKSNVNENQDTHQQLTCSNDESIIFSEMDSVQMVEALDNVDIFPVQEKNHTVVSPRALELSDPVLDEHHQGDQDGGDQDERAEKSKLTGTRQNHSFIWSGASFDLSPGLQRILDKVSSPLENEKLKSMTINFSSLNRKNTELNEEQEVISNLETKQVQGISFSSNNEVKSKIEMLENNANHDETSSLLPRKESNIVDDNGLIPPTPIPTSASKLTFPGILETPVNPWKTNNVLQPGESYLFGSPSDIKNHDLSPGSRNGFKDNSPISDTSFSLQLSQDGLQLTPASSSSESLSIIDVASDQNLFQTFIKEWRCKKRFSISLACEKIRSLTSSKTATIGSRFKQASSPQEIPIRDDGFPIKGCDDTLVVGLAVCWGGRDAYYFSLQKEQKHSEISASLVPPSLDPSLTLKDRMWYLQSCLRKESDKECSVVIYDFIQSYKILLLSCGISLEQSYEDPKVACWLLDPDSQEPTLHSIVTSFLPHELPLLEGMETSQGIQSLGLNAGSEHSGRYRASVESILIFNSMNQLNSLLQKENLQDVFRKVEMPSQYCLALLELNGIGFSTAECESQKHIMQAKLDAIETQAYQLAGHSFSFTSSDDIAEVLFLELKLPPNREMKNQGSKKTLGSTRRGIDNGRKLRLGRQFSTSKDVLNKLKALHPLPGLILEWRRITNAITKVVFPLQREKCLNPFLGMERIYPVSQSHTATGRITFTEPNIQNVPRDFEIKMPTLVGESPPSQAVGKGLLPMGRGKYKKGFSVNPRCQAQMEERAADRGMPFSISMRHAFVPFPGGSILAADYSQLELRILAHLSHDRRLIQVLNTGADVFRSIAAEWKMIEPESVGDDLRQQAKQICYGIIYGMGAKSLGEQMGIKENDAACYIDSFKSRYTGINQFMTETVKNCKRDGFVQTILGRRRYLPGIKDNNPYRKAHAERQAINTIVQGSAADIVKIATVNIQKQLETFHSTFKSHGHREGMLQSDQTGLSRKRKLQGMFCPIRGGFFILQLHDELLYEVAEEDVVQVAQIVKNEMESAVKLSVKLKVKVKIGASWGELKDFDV
Structure (SMILES) | remaining activity
CN1[C@@H](C[C@@H](O)c2ccccc2)CCC[C@H]1C[C@H](O)c1ccccc1 | 99.5%
c1ccc2c(c1)Nc1ccccc1S2 | 99.2%
O=C1C=C2C=C[C@@H]3C[C@@]2(O1)[C@H]1CCCCN31 | 100%
OC(c1ccccc1)(c1ccccc1)C1CCNCC1 | 102%
CCN1C[C@]2(COC)[C@H](O)C[C@H](OC)[C@@]34[C@@H]5C[C@@]6(O)[C@H](OC(=O)c7ccccc7)[C@@H]5[C@@](OC(C)=O)([C@@H]([C@H](OC)[C@H]23)[C@@H]14)[C@@H](O)[C@@H]6OC | 104%

Further values, each from its own experiment
pknB: Serine/threonine-protein kinase PknB (pknB, Mycobacterium tuberculosis, UniProt P9WI81)
Sequence of UniProt P9WI81 (whole entry, looked up): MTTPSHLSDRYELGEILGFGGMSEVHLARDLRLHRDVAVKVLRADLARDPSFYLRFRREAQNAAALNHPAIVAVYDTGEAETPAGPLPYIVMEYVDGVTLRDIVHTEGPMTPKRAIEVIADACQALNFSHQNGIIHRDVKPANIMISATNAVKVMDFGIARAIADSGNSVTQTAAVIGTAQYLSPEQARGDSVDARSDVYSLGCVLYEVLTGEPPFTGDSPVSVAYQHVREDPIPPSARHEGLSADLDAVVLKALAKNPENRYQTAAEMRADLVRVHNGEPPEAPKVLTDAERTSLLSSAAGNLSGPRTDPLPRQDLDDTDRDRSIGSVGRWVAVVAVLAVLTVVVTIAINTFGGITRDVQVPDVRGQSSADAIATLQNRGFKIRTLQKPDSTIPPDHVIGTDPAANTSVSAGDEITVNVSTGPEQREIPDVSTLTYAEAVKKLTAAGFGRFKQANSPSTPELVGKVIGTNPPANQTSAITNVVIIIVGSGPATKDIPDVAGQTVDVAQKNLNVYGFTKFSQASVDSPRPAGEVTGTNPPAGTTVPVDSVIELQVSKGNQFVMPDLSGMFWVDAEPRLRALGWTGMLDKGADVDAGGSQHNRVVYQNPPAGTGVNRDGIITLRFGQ
Compound | target | test | conditions | how to read | endpoint | result
O=C(O)[C@H]1[C@H](Cn2nnc3ccccc3c2=O)CC[C@@H]1C(=O)c1ccc(OCCC2CCOCC2)cc1 | pknB | cell-free assay, competition with immobilised ligand | 1 µM |  | remaining binding | 77%
CN[C@@H]1C[C@H]2O[C@@](C)([C@@H]1OC)n1c3ccccc3c3c4c(c5c6ccccc6n2c5c31)C(=O)NC4 | FLT3 (Homo sapiens, UniProt P36888) | enzyme activity, inhibitor | 0.5 µM | relative to: control | remaining activity | 2.41% and 1.12%
Cn1nc(C(=O)NCc2ccc(C(=O)O)cc2)cc1-c1ccc2[nH]ccc2c1 | CDPK1 (Plasmodium falciparum, UniProt P62344) | cell-free assay, competition with immobilised ligand | 0.1 µM |  | remaining binding | 73%
CO[C@@H]1[C@H](N(C)C(=O)c2ccccc2)C[C@H]2O[C@]1(C)n1c3ccccc3c3c4c(c5c6ccccc6n2c5c31)C(=O)NC4 | LTK (Homo sapiens, UniProt P29376) | enzyme activity, inhibitor | 1 µM |  | inhibition | 20%
CCOC(=O)c1cc2cc(-c3cc(C(=O)NCc4ccc(C(=O)O)cc4)nn3C)ccc2[nH]1 | pknB | cell-free assay, competition with immobilised ligand | 0.1 µM |  | remaining binding | 100%
O=c1[nH]c2ccccc2n1C1CCN(Cc2ccc(-c3[nH]c4cc5ncnc5cc4nc3-c3ccccc3)cc2)CC1 | SRPK3 (Homo sapiens, UniProt Q9UPE1) | enzyme activity, inhibitor | 0.5 µM | relative to: control | remaining activity | 107%
